# Assay results collected from several papers.
# A part holds a random share of what one study measured. Substitutions count along the parent as printed.
# UniProt P35590, sequence (whole entry, looked up): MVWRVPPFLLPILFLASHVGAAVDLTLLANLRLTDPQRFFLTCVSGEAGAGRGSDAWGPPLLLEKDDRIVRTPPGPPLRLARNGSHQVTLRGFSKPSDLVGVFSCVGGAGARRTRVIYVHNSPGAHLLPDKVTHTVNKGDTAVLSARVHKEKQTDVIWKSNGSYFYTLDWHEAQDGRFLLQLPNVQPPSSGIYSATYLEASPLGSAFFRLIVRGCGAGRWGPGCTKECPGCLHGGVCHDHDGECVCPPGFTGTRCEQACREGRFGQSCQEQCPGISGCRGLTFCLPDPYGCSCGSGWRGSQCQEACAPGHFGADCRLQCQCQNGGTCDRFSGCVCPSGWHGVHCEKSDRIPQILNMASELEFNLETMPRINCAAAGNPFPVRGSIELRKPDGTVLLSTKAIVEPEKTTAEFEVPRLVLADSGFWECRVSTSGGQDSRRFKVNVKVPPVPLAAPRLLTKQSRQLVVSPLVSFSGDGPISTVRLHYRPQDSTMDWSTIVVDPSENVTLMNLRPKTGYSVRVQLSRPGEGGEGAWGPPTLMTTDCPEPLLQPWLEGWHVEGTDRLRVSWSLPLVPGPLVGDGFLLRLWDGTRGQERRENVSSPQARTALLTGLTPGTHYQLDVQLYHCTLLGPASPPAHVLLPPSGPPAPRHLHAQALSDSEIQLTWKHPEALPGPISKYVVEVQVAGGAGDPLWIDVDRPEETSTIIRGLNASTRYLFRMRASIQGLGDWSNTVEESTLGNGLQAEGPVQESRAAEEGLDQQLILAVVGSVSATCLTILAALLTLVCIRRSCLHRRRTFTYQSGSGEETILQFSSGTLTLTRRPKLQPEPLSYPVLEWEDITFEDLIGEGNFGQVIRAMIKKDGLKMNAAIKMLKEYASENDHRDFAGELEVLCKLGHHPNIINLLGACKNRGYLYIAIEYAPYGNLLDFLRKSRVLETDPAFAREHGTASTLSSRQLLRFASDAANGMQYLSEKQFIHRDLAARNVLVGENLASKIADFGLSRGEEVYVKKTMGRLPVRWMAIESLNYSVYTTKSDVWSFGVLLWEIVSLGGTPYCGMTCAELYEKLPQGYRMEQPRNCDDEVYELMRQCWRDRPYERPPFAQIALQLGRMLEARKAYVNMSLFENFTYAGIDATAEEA

# Set 1 — method: protein-binding microarray; molecule type: double-stranded DNA, one strand shown; medium: in vitro; concentration: 0.8 µM; setting: whole 60-bp probe, no competitor; direction: higher = stronger binding; all sequences stand within: … GTCTTGATTCGCTTGACGCTGCTG
# Target: Centromere-binding protein 1, full length, N-terminal tag (CBF1, Saccharomyces cerevisiae, UniProt P17106, residues 1-351)
# UniProt P17106, sequence (whole entry, looked up): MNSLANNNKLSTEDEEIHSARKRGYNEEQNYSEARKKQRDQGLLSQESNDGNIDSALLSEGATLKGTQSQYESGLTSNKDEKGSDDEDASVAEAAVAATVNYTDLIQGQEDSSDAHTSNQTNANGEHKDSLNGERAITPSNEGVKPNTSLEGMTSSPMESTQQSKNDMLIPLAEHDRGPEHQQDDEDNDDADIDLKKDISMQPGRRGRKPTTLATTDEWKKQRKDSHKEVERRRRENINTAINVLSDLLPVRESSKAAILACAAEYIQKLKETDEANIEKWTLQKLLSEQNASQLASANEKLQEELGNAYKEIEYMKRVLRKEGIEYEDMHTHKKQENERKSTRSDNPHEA
Strand,fluorescence intensity [a.u.]
CTATGGAACGATAGGAACGTGTACCCTACCGCTTTC,522
CTACTTCATTTGCATCATCAGTAGCGTTCATCTTTC,538
CCTAACTACTATAGTGGTGTCCCATAGCTTCGTACA,495
CCTAACTACTATATTCACGTGTAATAGCTTCGTACA,2550
GAATAAACAAAGTTTCATGTGAATTTGCTTAGTTAG,504
CTATTTACTCTGTAATAGCTGACGATTCTTCAGTTC,498
GAAGCAGGATGAAATCACGGGCGATGGGACCACTAG,792
GAAACTCTCTTTTTCCACATGGTGCGTTCACGCTAG,505

# Set 2 — method: protein binding microarray; molecule type: double-stranded DNA, one strand shown; medium: in vitro; concentration: not given; reference: not given; direction: higher = stronger binding
# Target: Histone acetyltransferase KAT6A, both winged helices, GST fusion (KAT6A, Homo sapiens, UniProt Q92794, residues 1-181)
# Setting: 8-mer, flanks averaged, mean of 2 arrays, mostly near background
# Construct (chain): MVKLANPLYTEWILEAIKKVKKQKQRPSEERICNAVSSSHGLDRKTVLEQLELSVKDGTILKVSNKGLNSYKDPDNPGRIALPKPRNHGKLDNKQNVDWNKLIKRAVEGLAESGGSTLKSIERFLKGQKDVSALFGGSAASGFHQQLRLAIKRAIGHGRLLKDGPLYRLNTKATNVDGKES
Strand,E-score
CCCCTGCA,-0.14
ACCACCAA,-0.153
ACGATCAG,-0.0981
AATGGAGA,-0.0532
TCCAGACA,-0.2
AGCAACAG,-0.0927
ACCAGAGC,-0.116
CAGGCTGC,-0.164

# Set 3 — target: CCNE1, cyclin fold, Cln2 fusion (human); method: yeast growth competition, sequencing; medium: yeast; setting: weak parent motif; reference: not given; direction: higher = stronger binding
# Starting sequence: SLBP docking peptide (human); ARYKRKLLINDFG
Variant,normalised enrichment score
K6P,0.0915
L7G,0.353
L7Y,0.766
G13P,0.909
N10D,0.799
L8P,0.597
R2N,0.641
Y3F,0.0725

# Single results of other studies
SMILES,target,assay,conditions,endpoint,value
O=C(O)c1cc(-c2ccc(C3CCNCC3)cc2)c2ccc(-c3ccc(C(F)(F)F)cc3)cc2c1,"Tyrosine-protein kinase receptor Tie-1 (TIE1, Homo sapiens, UniProt P35590)","cell-free assay, competition with immobilised ligand",1 µM,remaining binding,100%

# Excerpt of the above (set 1):
Strand,fluorescence intensity [a.u.]
CTATTTACTCTGTAATAGCTGACGATTCTTCAGTTC,498
GAAGCAGGATGAAATCACGGGCGATGGGACCACTAG,792
